Measured values of several laboratories.
Each line is one published result; not all experiments were run side by side. Converted amounts (≈) assume the structure as drawn.
4'-phosphopantetheinyl transferase PptT: 4'-phosphopantetheinyl transferase PptT (Mycobacterium tuberculosis, UniProt O33336)
Sequence of UniProt O33336 (whole entry, looked up): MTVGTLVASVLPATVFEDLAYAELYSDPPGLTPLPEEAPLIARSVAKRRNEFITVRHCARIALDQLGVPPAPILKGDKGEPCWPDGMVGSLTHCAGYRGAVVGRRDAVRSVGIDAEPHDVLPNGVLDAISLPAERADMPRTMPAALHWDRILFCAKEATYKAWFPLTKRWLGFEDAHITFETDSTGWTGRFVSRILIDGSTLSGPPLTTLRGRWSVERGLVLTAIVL
Sequence of UniProt P42336 (whole entry, unmodified, looked up): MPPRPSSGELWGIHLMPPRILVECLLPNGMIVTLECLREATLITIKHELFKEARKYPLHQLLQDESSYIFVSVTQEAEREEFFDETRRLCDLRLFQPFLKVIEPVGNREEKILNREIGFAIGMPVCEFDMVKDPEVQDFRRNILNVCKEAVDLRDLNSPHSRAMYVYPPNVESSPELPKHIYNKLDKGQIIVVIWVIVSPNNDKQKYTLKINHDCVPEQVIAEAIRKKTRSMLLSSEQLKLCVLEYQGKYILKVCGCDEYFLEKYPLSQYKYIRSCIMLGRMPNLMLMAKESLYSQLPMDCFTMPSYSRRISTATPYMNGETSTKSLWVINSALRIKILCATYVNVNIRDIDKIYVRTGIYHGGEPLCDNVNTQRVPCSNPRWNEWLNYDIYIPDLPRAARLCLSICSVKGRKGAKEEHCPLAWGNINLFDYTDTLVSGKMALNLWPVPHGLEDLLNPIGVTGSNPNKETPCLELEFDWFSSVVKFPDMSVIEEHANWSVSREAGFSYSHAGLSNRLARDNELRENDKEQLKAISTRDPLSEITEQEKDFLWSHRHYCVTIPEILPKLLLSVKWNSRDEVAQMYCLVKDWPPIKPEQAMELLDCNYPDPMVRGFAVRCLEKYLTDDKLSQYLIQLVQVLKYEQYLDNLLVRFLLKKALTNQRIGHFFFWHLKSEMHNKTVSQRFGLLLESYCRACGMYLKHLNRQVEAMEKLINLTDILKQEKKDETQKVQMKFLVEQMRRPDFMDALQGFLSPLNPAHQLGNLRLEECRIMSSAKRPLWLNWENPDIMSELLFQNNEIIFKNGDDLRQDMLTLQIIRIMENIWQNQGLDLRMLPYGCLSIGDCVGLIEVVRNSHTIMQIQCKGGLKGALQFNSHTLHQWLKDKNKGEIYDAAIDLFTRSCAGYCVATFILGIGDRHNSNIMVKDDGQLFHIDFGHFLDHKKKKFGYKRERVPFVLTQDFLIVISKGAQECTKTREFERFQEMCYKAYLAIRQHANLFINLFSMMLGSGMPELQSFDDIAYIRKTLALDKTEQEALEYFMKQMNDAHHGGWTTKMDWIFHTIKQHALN
Sequence of UniProt Q8TDX7 (whole entry, looked up): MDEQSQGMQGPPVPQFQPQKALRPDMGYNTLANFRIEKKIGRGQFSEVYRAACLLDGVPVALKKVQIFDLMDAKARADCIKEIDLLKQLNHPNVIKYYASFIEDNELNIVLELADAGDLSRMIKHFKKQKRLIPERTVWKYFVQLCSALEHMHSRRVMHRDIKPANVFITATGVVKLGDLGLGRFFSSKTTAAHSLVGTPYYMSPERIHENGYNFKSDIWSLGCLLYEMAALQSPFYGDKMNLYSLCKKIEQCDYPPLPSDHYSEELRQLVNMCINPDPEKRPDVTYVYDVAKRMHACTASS
Sequence of UniProt P62344 (whole entry, looked up): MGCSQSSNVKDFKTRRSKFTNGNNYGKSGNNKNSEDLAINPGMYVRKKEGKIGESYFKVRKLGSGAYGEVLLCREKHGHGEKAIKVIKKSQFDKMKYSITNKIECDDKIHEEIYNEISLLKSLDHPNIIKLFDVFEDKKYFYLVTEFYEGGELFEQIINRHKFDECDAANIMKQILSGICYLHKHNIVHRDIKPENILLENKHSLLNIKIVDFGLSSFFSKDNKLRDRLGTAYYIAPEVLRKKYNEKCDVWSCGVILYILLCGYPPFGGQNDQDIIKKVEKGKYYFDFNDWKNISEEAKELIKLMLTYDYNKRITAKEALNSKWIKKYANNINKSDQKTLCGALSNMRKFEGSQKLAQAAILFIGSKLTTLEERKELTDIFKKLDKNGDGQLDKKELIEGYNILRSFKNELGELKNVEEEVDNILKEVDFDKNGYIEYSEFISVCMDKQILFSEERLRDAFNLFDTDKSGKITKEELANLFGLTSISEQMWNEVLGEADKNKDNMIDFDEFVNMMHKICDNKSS
Sequence of UniProt P78356 (whole entry, looked up): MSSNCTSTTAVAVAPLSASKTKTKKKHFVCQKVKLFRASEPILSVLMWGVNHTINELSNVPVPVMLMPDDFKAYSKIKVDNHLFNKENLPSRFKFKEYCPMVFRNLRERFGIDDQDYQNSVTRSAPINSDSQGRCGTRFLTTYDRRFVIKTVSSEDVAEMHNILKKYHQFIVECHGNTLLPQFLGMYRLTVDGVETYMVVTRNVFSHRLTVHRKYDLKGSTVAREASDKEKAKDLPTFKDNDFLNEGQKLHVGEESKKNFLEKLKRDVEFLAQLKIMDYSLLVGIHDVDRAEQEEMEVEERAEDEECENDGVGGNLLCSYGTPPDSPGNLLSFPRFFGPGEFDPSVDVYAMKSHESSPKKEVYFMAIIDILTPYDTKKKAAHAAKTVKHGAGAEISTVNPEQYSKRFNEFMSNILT

Structure (SMILES) | tested on | test | test system | setting | measurement | value
O=C(NNc1ccccc1)c1nnc(CC23CC4CC(CC(C4)C2)C3)o1 | Sclerotinia sclerotiorum | microbial growth | – | 50 µg/mL | inhibition | 72.4%
CC(=O)N1CCN(c2ccc(OCC3COC(Cn4ccnc4)(c4ccc(Cl)cc4Cl)O3)cc2)CC1 (stereo not shown) | Candida albicans | microbial killing, broth dilution | – | 48 h | MFC | > 64 µM
O=C(NNc1ccc(F)c(F)c1)c1nnc(C23CC4CC(CC(C4)C2)C3)o1 | Fusarium oxysporum | microbial growth | – | 50 µg/mL | inhibition | 100%
COC(=O)c1cc(-c2cccc(NC(=S)Nc3ccc(Cl)cc3)c2)on1 | Acinetobacter baumannii | microbial growth, broth dilution | BAA1605 | – | MIC | > 64 µg/mL
Oc1c(Br)cc(Br)cc1-c1[nH]c(Br)c(Br)c1Br | Escherichia coli | microbial growth | K12, MG1655 | – | MIC | 10.7 µM
[2H]c1c([2H])c([C@]2([2H])CCCN2C(=O)C(C)(C)Oc2ccc3cn[nH]c3c2)c([2H])c([2H])c1C([2H])([2H])[2H] | NEK7 (Homo sapiens, UniProt Q8TDX7) | binding, competition with immobilised ligand | – | 1 µM | remaining binding | 75%
CC(C)[C@@H]1NC(=O)[C@@H](CC(N)=O)NC(=O)[C@H](CCCN)NC(=O)[C@@H](CC(N)=O)NC(=O)[C@H](CCCCN)NC(=O)[C@H](C(C)C)NC(=O)[C@@H](C(C)C)NC(=O)[C@@H](C(C)C)NC(=O)[C@@H](C(C)C)NC1=O | Balamuthia mandrillaris | parasite growth, ATP luminescence | – | – | IC50 | > 16 µg/mL
COc1ncccc1-c1cnn2ccc(N3CCN(C(=O)OC(C)C)CC3)nc12 | PIP4K2B (Homo sapiens, UniProt P78356) | binding, competition with immobilised ligand | – | 1 µM | remaining binding | 71%
Oc1c(Cl)cc(Cl)cc1-c1[nH]c(Cl)c(Cl)c1Cl | Salmonella enterica | microbial growth | ATCC13311 | – | MIC | 10.7 µM
CC(C)[C@H]1NC(=O)[C@H](Cc2ccccc2)NC(=O)[C@@H](Cc2c[nH]c3ccccc23)NC(=O)[C@H](CCCNC(=N)N)NC(=O)[C@@H](CCCN)NC(=O)[C@H](CC(N)=O)NC1=O | Balamuthia mandrillaris | parasite growth, ATP luminescence | – | – | IC90 | > 16 µg/mL
COC(=O)c1cc(-c2cccc(NC(=O)Nc3ccc(F)cc3F)c2)on1 | Mycobacteroides abscessus | microbial growth, broth dilution | ATCC19977 | 48 h | MIC | > 64 µg/mL
Cc1nn(C)cc1-c1nc2c(N3CCN(Cc4ccc(Cl)cc4)CC3)c(Cl)cnc2[nH]1 | PIK3CA (Homo sapiens, UniProt P42336, C420R) | binding, competition with immobilised ligand | – | 1 µM | remaining binding | 100%
O=C(NNc1cccc(Cl)c1)c1nnc(C23CC4CC(CC(C4)C2)C3)o1 | Sclerotinia sclerotiorum | microbial growth | – | 50 µg/mL | inhibition | 46.8%
Nc1ncc(-c2nc(N3CCOCC3)nc(N3CCOCC3)n2)c(C(F)F)n1 | CDPK1 (Plasmodium falciparum, UniProt P62344) | binding, competition with immobilised ligand | – | 10 µM | remaining binding | 57%
C[C@H]1NC(=O)[C@H](Cc2c[nH]c3ccccc23)NC(=O)[C@@H](Cc2ccccc2)NC(=O)[C@@H](CCCN)NC(=O)[C@H]([C@@H](C)O)NC(=O)[C@@H](CCCN)NC(=O)[C@H](Cc2c[nH]c3ccccc23)NC(=O)[C@@H](C)NC1=O | Balamuthia mandrillaris | parasite growth, ATP luminescence | – | – | IC90 | > 16 µg/mL
O=c1c2cc(C(F)(F)F)ccc2[nH]c(=S)n1Cc1cccnc1 | 4'-phosphopantetheinyl transferase PptT | enzyme activity, inhibitor, FP | – | – | IC50 | 1.21 µM

Structure (SMILES) | tested on | test | test system | setting | measurement | value
O=C(NNc1cc(F)ccc1F)c1nnc(C23CC4CC(CC(C4)C2)C3)o1 | Fusarium oxysporum | microbial growth | – | – | EC50 | 6.79 µg/mL (≈ 18.1 µM)
CC(C)[C@@H]1NC(=O)[C@@H](CCCNC(=N)N)NC(=O)[C@H]([C@@H](C)O)NC(=O)[C@@H](CCN)NC(=O)[C@H](Cc2ccccc2)NC(=O)[C@@H](Cc2ccccc2)NC1=O | Balamuthia mandrillaris | parasite growth, ATP luminescence | – | – | IC90 | 10.8 µM
COC(=O)c1cc(-c2cccc(NC(=O)Nc3ccccc3OC)c2)on1 | Escherichia coli | microbial growth, broth dilution | ATCC25922 | – | MIC | > 64 µg/mL
CO/C=C(/C(=O)OC)c1ccccc1Oc1cc(Oc2ccccc2C#N)ncn1 | Sclerotinia sclerotiorum | microbial growth | – | 50 µg/mL | inhibition | 74.2%
COC(=O)c1cc(-c2cccc(NC(=O)NCc3ccccc3)c2)on1 | Mycobacteroides abscessus | microbial growth, broth dilution | ATCC19977 | 48 h | MIC | > 64 µg/mL
CC(C)[C@H]1NC(=O)[C@H](CCCNC(=N)N)NC(=O)CNC(=O)[C@@H](Cc2c[nH]c3ccccc23)NC(=O)[C@H](CCCCN)NC(=O)[C@@H](CCCN)NC1=O | Balamuthia mandrillaris | parasite growth, ATP luminescence | – | – | IC50 | > 16 µg/mL
C[C@H]1COc2c(N3CCN(C)CC3)c(F)cc3c(=O)c(C(=O)O)cn1c23 | Acinetobacter baumannii | microbial growth, broth dilution | BAA1605 | – | MIC | 8 µg/mL
O=C(NNc1cccc(Cl)c1)c1nnc(CC23CC4CC(CC(C4)C2)C3)o1 | Sclerotinia sclerotiorum | microbial growth | – | 50 µg/mL | inhibition | 100%
N#CN=c1[nH]c2ccc(Cl)cc2c(=O)n1Cc1cccnc1 | 4'-phosphopantetheinyl transferase PptT | enzyme activity, inhibitor, FP | – | – | IC50 | 22.4 µM
CC(C)[C@@H]1NC(=O)[C@@H](C(C)C)NC(=O)[C@H](C)NC(=O)[C@H](CO)NC(=O)[C@H](Cc2c[nH]c3ccccc23)NC(=O)[C@@H](Cc2ccc(O)cc2)NC(=O)[C@H](CCCN)NC(=O)[C@H](Cc2c[nH]c3ccccc23)NC1=O | Balamuthia mandrillaris | parasite growth, ATP luminescence | – | – | IC90 | > 16 µg/mL
O=C(NNc1ccc(F)c(F)c1)c1nnc(CC23CC4CC(CC(C4)C2)C3)o1 | Fusarium oxysporum | microbial growth | – | – | EC50 | 7.43 µg/mL (≈ 19.1 µM)
COC(=O)c1cc(-c2cccc(NC(=S)Nc3ccc(F)c(Cl)c3)c2)on1 | Mycobacteroides abscessus | microbial growth, broth dilution | ATCC19977 | 48 h | MIC | > 64 µg/mL
C[C@@H](O)[C@@H]1NC(=O)[C@@H](CCCCN)NC(=O)[C@H](CCCN)NC(=O)[C@@H](CCCN)NC(=O)[C@H](CO)NC(=O)[C@H](Cc2c[nH]c3ccccc23)NC(=O)[C@@H](Cc2c[nH]c3ccccc23)NC1=O | Balamuthia mandrillaris | parasite growth, ATP luminescence | – | – | IC90 | > 16 µg/mL
COC(=O)c1cc(-c2ccc(NC(=O)Nc3ccc(Cl)c(Cl)c3)cc2)on1 | Acinetobacter baumannii | microbial growth, broth dilution | BAA1605 | – | MIC | > 64 µg/mL
CC(C)[C@H]1NC(=O)[C@H](Cc2ccccc2)NC(=O)CNC(=O)[C@@H](Cc2ccccc2)NC(=O)[C@H](CCC(N)=O)NC(=O)[C@@H](CCCN)NC1=O | Balamuthia mandrillaris | parasite growth, ATP luminescence | – | – | IC50 | > 16 µg/mL

For quick reference, copied from above:
Structure (SMILES) | tested on | test | test system | setting | measurement | value
O=C(NNc1ccccc1)c1nnc(CC23CC4CC(CC(C4)C2)C3)o1 | Sclerotinia sclerotiorum | microbial growth | – | 50 µg/mL | inhibition | 72.4%
CC(=O)N1CCN(c2ccc(OCC3COC(Cn4ccnc4)(c4ccc(Cl)cc4Cl)O3)cc2)CC1 (stereo not shown) | Candida albicans | microbial killing, broth dilution | – | 48 h | MFC | > 64 µM
